Measurements collected from several papers.
± gives the spread as reported.

N=C(N)NCCC[C@@H]1NC(=O)[C@H](CCCCNC(=O)CCOCCOCCOCCOCCNC(=O)CC[C@H](NC(=O)CCOCCOCCOCCOCCNC(=O)CC[C@H](NC(=O)CN2CCN(CC(=O)O)CCN(CC(=O)O)CCN(CC(=O)O)CC2)C(=O)NCCOCCOCCOCCOCCC(=O)N[C@@H](CCC(=O)NCCOCCOCCOCCOCCC(=O)NCCCC[C@@H]2NC(=O)[C@@H](Cc3ccccc3)NC(=O)[C@H](CC(=O)O)NC(=O)CNC(=O)[C@H](CCCNC(=N)N)NC2=O)C(=O)NCCOCCOCCOCCOCCC(=O)NCCCC[C@@H]2NC(=O)[C@@H](Cc3ccccc3)NC(=O)[C@H](CC(=O)O)NC(=O)CNC(=O)[C@H](CCCNC(=N)N)NC2=O)C(=O)NCCOCCOCCOCCOCCC(=O)NCCCC[C@@H]2NC(=O)[C@@H](Cc3ccccc3)NC(=O)[C@H](CC(=O)O)NC(=O)CNC(=O)[C@H](CCCNC(=N)N)NC2=O)NC(=O)[C@@H](Cc2ccccc2)NC(=O)[C@H](CC(=O)O)NC(=O)CNC1=O [indium-111 labelled] — tumour to muscle ratio (female athymic nude mouse; intravenous, 3 µCi, 4 h, U-87 MG glioma xenograft; baseline: tumour over muscle): 12.6 ± 3.7
N=C(N)NCCC[C@@H]1NC(=O)[C@H](CCCCNC(=O)CNC(=O)CNC(=O)CNC(=O)c2ccc(NN=Cc3ccccc3S(=O)(=O)O)nc2)NC(=O)[C@@H](Cc2ccccc2)NC(=O)[C@H](CC(=O)O)NC(=O)CNC1=O [technetium-99m labelled] — tumour to tissue ratio (athymic nu/nu mouse, female, U-87 MG glioma xenograft; intravenous, 30 min; baseline: tumour over blood): 4.42 ± 0.4
N=C(N)NCCC[C@@H]1NC(=O)[C@H](CCCCNC(=O)c2ccc(CNC34CNCCNCC(NCc5ccc(C(=O)NCCCC[C@@H]6NC(=O)[C@@H](Cc7ccc(O)cc7)NC(=O)[C@H](CC(=O)O)NC(=O)CNC(=O)[C@H](CCCNC(=N)N)NC6=O)cc5)(CNCCNC3)CNCCNC4)cc2)NC(=O)[C@@H](Cc2ccc(O)cc2)NC(=O)[C@H](CC(=O)O)NC(=O)CNC1=O [copper-64 labelled] — tumour uptake (microPET; female athymic nude mouse, U-87 MG xenograft, U-87 MG tumour; intravenous, 20 h): 5.54 ± 1.27 %ID/g
CC(C)C[C@H](NC(=O)C[C@H](O)[C@H](CC(C)C)NC(=O)[C@H](Cc1c[nH]cn1)NC(=O)CNC(=O)[C@@H](NC(=O)[C@H](C)NC(=O)[C@H](Cc1c[nH]c2ccccc12)NC(=O)[C@H](CCC(N)=O)NC(=O)[C@@H](Cc1ccccc1)NC(=O)c1ccc(NC(=O)CNC(=O)CCC(C(=O)O)N2CCN(CC(=O)O)CCN(CC(=O)O)CC2)cc1)C(C)C)C(N)=O (stereo partly drawn) [fluorine-18 labelled] — tumour uptake (PET imaging; mouse, PC-3 xenograft; intravenous, 1 h, 18F-labelled): 4 ± 0.87 %ID/g
N=C(N)NCCC[C@@H]1NC(=O)[C@H](CCCCNC(=O)CCOCCOCCOCCOCCNC(=O)CN2CCN(CC(=O)O)CCN(CC(=O)O)CCN(CC(=O)O)CC2)NC(=O)[C@@H](Cc2ccccc2)NC(=O)[C@H](CC(=O)O)NC(=O)CNC1=O [indium-111 labelled] — tumour uptake (female athymic nude mouse, U-87 MG tumour; intravenous, 3 µCi, 0.5 h, U-87 MG glioma xenograft): 3.7 %ID/g
CC(C)C[C@H](NC(=O)[C@@H]1CCCN1C(=O)[C@H](CCCCN)NC(=O)[C@@H](N)CO)C(=O)N1CCC[C@H]1C(=O)N[C@@H](CCC(=O)O)C(=O)N[C@H](C(=O)N[C@H](C(=O)N[C@@H](CC(=O)O)C(=O)N[C@@H](CCC(=O)O)C(=O)N[C@@H](Cc1ccc(O)cc1)C(=O)N[C@@H](Cc1cn(CCOCCOCCOCCNC(=O)CCc2ccc(O)c(CN(CCN(CC(=O)O)Cc3cc(CCC(=O)NCCCC[C@H](NC(=O)N[C@@H](CCC(=O)O)C(=O)O)C(=O)O)ccc3O)CC(=O)O)c2)nn1)C(=O)O)[C@@H](C)O)C(C)C [gallium-68 labelled] — tumour SUVmax (PET; NMRI nu/nu mouse, LNCaP xenograft; 60 to 120 min, added: unlabelled PSMA PLT-TM 86 nmol/animal): 0.06 g/mL
N=C(N)NCCC[C@@H]1NC(=O)[C@H](CCCCNC(=O)CNC(=O)CNC(=O)CNC(=O)CC[C@H](NC(=O)c2ccc(NN=Cc3ccccc3S(=O)(=O)O)nc2)C(=O)NCC(=O)NCC(=O)NCC(=O)NCCCC[C@@H]2NC(=O)[C@@H](Cc3ccccc3)NC(=O)[C@H](CC(=O)O)NC(=O)CNC(=O)[C@H](CCCNC(=N)N)NC2=O)NC(=O)[C@@H](Cc2ccccc2)NC(=O)[C@H](CC(=O)O)NC(=O)CNC1=O [technetium-99m labelled] — tumour to tissue ratio (athymic nu/nu mouse, female, U-87 MG glioma xenograft; intravenous, 120 min; baseline: tumour over blood): 29 ± 4.68
N=C(N)NCCC[C@@H]1NC(=O)[C@H](CCCCNC(=O)CC[C@H](NC(=O)CCOCCOCCOCCOCCNC(=O)CN2CCN(CC(=O)O)CCN(CC(=O)O)CCN(CC(=O)O)CC2)C(=O)NCCCC[C@@H]2NC(=O)[C@@H](Cc3ccccc3)NC(=O)[C@H](CC(=O)O)NC(=O)CNC(=O)[C@H](CCCNC(=N)N)NC2=O)NC(=O)[C@@H](Cc2ccccc2)NC(=O)[C@H](CC(=O)O)NC(=O)CNC1=O [indium-111 labelled] — tumour uptake (female athymic nude mouse, U-87 MG tumour; intravenous, 3 µCi, 24 h, U-87 MG glioma xenograft): 3.1 %ID/g
CSCC[C@H](NC(=O)[C@H](CC(C)C)NC(=O)[C@H](Cc1cnc[nH]1)NC(=O)CNC(=O)[C@@H](NC(=O)[C@H](C)NC(=O)[C@H](Cc1c[nH]c2ccccc12)NC(=O)[C@H](CCC(N)=O)NC(=O)CCCCCCCNC(=O)CN1CCN(CC(=O)O)CCN(CC(=O)O)CCN(CC(=O)O)CC1)C(C)C)C(N)=O [lutetium-177 labelled] — tumour retention ratio (mouse PC-3 xenograft, tumour; baseline: 177Lu-labelled over 111In-labelled): 1.7 to 2.8

For quick reference, copied from above:
CSCC[C@H](NC(=O)[C@H](CC(C)C)NC(=O)[C@H](Cc1cnc[nH]1)NC(=O)CNC(=O)[C@@H](NC(=O)[C@H](C)NC(=O)[C@H](Cc1c[nH]c2ccccc12)NC(=O)[C@H](CCC(N)=O)NC(=O)CCCCCCCNC(=O)CN1CCN(CC(=O)O)CCN(CC(=O)O)CCN(CC(=O)O)CC1)C(C)C)C(N)=O [lutetium-177 labelled] — tumour retention ratio (mouse PC-3 xenograft, tumour; baseline: 177Lu-labelled over 111In-labelled): 1.7 to 2.8
